Experimental data from different studies.
Lines come from different studies, so protocols differ. ± marks the error that the study gave.
Organism: SARS-CoV-2

Molecule	assay	system	setting	how to read	measurement	value
C[C@H]1CN(C[C@H](Cc2ccccc2)C(=O)NCC(=O)O)CC[C@@]1(C)c1cccc(O)c1	viral replication	Huh-7			IC50	> 2 µM
CCN(CC)Cc1ccc2cc(COC(=O)Nc3ccc(C(=O)NO)cc3)ccc2c1	viral replication, GFP plate reader screen		cell-based		EC50	10.5 µM
C[C@@H]1CS/C(=N\NC(=O)C(=O)[C@H](NC(=O)C2CCCCCC2)C2CCOCC2)N1C	viral replication, inhibitor	Vero E6, USA-WA1/2020	24 h		EC90	0.939 µM
CCOC(=O)Oc1c(OC)cc(C(=O)O[C@@H]2C[C@@H]3CN4CCc5c([nH]c6cc(OC)ccc56)[C@H]4C[C@@H]3[C@H](C(=O)OC)[C@H]2OC)cc1OC	viral replication, GFP plate reader screen		cell-based		EC50	> 100 µM
CC(C)(C)[C@H](NC(=O)C(F)(F)F)C(=O)N1C[C@H]2[C@@H]([C@H]1C(=O)N[C@H](C#N)C[C@@H]1CCNC1=O)C2(C)C	viral replication	Vero E6	0.1111 µM		inhibition	113%
Cc1nn(-c2ccc(Cl)cc2)c2c1C(c1ccc(Cl)cc1)C(C#N)=C(N)O2 (centres unmarked)		Vero C1008	1 µM	baseline: positive control	viral titre log reduction	0.06 log10
IVDTVSALV		peptide, T cells from acute-phase patients	dose not given		antigen-specific T cell frequency	0.0266%
CC(C)/N=c1\cc2n(-c3ccc(Cl)cc3)c3ccccc3nc-2cc1Nc1ccc(Cl)cc1	viral replication	Vero E6, USA-WA1/2020	2.5 µM		inhibition	49.4%
CC(Nc1nc(N2CCN(C)CC2)nc2ccccc12)c1ccccc1 (centres unmarked)	cytopathic effect, cell-based CPE	USA_WA1/2020	round 2, 5-point dilution		maximal response	109%
Cc1nn(-c2ccc(Cl)cc2)c2c1C(c1c(Cl)cccc1Cl)C(C#N)=C(N)O2 (centres unmarked)	RT-qPCR, item: viral RNA	Vero	10 µM	higher means less virus	Ct value	25.3 cycles
Cn1c(=O)c2c(nc(C=Cc3cccc(Cl)c3)n2C)n(C)c1=O	viral replication, inhibitor	Vero E6, USA-WA1/2020	24 h		EC90	> 2.5 µM
CCN(CC)Cc1ccc(Nc2ccnc3cc(Cl)ccc23)cc1O	cytopathic effect, cell-based CPE	USA_WA1/2020	round 2, 5-point dilution		AC50	8.91 µM
C=C1C(=CC=C2CCCC3(C)C2CCC3C(C)C=CC(O)C2CC2)CC(O)CC1O (centres unmarked)	viral replication	Huh-7			IC50	> 2 µM
O=C(NCCCN1CCCCCC1)c1ccc2c(c1)sc1nc(-c3ccccc3)cn12	cytopathic effect	USA_WA1/2020	round 2, 5-point		efficacy	86.7%
CCCCCCC(C)(C)c1cc(O)c2c(c1)OC(C)(C)C1CCC(=O)CC21 (centres unmarked)	viral replication, high-content imaging screen		cell-based		EC50	> 25.1 µM
CC(C)=CCc1c(O)ccc(C(=O)/C=C/c2ccc(O)cc2)c1O	viral replication	Vero E6	12.5 µM		CPE inhibition	0%
CCCN(CCC)CCNC(=O)c1cc(Sc2ccc(Cl)cc2)nc2ccccc12	cytopathic effect	USA_WA1/2020	first round 5-point		efficacy	97.2%
CO[C@@]1(NC(=O)Cc2cccs2)C(=O)N2C(C(=O)O)=C(COC(N)=O)CS[C@@H]21	viral replication	Huh-7			IC50	> 2 µM
CN1CCC(COc2cnc(-c3cccc(Cn4nc(-c5cccc(C#N)c5)ccc4=O)c3)nc2)CC1	viral replication, GFP plate reader screen	BetaCov/Belgium/GHB-03021/2020	cell-based		EC50	> 100 µM
O=C(O)c1ccc2c(c1)nc(Nc1cccc(Cl)c1)c1ccncc12	viral replication	Vero E6	concentration not given		activity class	active
O=C(/C=C/c1ccc(O)c(O)c1/C=C/c1ccc(O)c(O)c1)O[C@H](Cc1ccc(O)c(O)c1)C(=O)O	viral replication	Vero E6	3.125 µM	baseline: mean of replicates	CPE inhibition	0%
O=C(c1ccc(F)cc1)C1CCN(CCCn2c(=O)[nH]c3cc(Cl)ccc32)CC1	viral replication, high-content imaging screen		cell-based		EC50	> 100 µM

Molecule	assay	system	setting	how to read	measurement	value
CC1CCCN(CCCNC(=O)c2cc(Sc3ccc(F)cc3)nc3ccccc23)C1 (centres unmarked)	cytopathic effect	USA_WA1/2020	first round 5-point		AC50	12.6 µM
Cc1cccc(CN2CCN(C(c3ccccc3)c3ccc(Cl)cc3)CC2)c1 (centres unmarked)	viral replication	A549 expressing ACE2	inactive set pIC50 4		IC50	> 10 µM
Cc1ccc(C(C)Nc2nc(N3CCNCC3)nc3ccccc23)cc1 (centres unmarked)	cytopathic effect	USA_WA1/2020			AC50	12.6 µM
CCCC(CCC)C(=O)O		Vero E6	concentration not given, NYC laboratory		viral replication inhibition	inactive
Nc1ccn([C@@H]2O[C@H](CO)[C@@H](O)C2(F)F)c(=O)n1	viral replication	Huh-7			IC50	> 2 µM
CN(C)C(=O)COC(=O)Cc1ccc(OC(=O)c2ccc(NC(=N)N)cc2)cc1			concentration not given, Paris laboratory		viral replication inhibition	inactive
CN1CC[C@@]23CCCC[C@@H]2[C@@H]1Cc1ccc(O)cc13	viral replication	A549 expressing ACE2	inactive set pIC50 4		IC50	> 10 µM
NC(=O)C1CN(CCCCC(c2ccc(F)cc2)c2ccc(F)cc2)CCN1CC(=O)Nc1c(Cl)cc(N)cc1Cl (centres unmarked)	viral replication, GFP plate reader screen		cell-based		EC50	> 100 µM
COc1cccc2c1C(=O)c1c(O)c3c(c(O)c1C2=O)C[C@@](O)(C(C)=O)C[C@@H]3O[C@H]1C[C@H](N)[C@H](O)[C@H](C)O1			concentration not given, Paris laboratory		viral replication inhibition	inactive
COc1cc(C2C(C#N)=C(N)Oc3c2c(C)nn3-c2ccc(Cl)cc2)cc(OC)c1OC (centres unmarked)		Vero	10 µM		viral titre	236000 IU/mL
CCOc1ccc(CN2CCN(Cc3ccc4c(c3)c3ccccc3n4CC)CC2)cc1	cytopathic effect	USA_WA1/2020	round 2, 5-point		maximum response	65.8%
Cc1nn(-c2ccc(Cl)cc2)c2c1C(c1ccc(Br)cc1)C(C#N)=C(N)O2 (centres unmarked)	viral replication	Vero	1 µM		viral reduction	0.776%
c1ccc(CN(CCN(Cc2ccccn2)Cc2ccccn2)Cc2ccccn2)nc1	viral replication, high-content imaging screen	BetaCov/Belgium/GHB-03021/2020	cell-based		EC50	> 100 µM
COc1ccc(N2CCN(CCCNC(=O)c3cc(Nc4ccc(OC)cc4OC)nc4ccccc34)CC2)cc1	cytopathic effect, cell-based CPE	USA_WA1/2020			AC50	14.1 µM
CC(C)(C)NC[C@H](O)COc1ccccc1C1CCCC1	viral replication, high-content imaging screen		cell-based		EC50	20 µM
Cc1c(-c2ccccc2)oc2c(C(=O)OCCN3CCCCC3)cccc2c1=O	viral replication	Vero E6	inactive set pIC50 4		IC50	> 10 µM
Cc1cc(Nc2cc(N)ncn2)c(=O)n2c1C(=O)NC21CCCCC1			concentration not given, Paris laboratory		viral replication inhibition	inactive
O=C(O[C@@H]1Cc2c(O)cc(O)cc2O[C@@H]1c1cc(O)c(O)c(O)c1)c1cc(O)c(O)c(O)c1	cytopathic effect	Vero E6	50 µM, replicate run		mean inhibition	93.3%
CCC(CC)COC(=O)[C@H](C)N[P@](=O)(OC[C@H]1O[C@@](C#N)(c2ccc3c(N)ncnn23)[C@H](O)[C@@H]1O)Oc1ccccc1		Vero	10 µM		viral titre	70400 IU/mL
CC(C)(C)[C@H](NC(=O)C(F)(F)F)C(=O)N1C[C@H]2[C@@H]([C@H]1C(=O)N[C@H](C#N)C[C@@H]1CCNC1=O)C2(C)C	viral replication	Omicron BA.1 strain	24 h		EC90	0.0376 ± 0.0172 µM
CN(C)CC[C@@H](c1ccc(Cl)cc1)c1ccccn1	viral replication, RT-qPCR	A549 expressing ACE2			IC50	> 10 µM
COc1ccc(C[C@@H]2c3cc(Oc4cc(C[C@@H]5c6cc(O)c(OC)cc6CCN5C)ccc4O)c(OC)cc3CCN2C)cc1	viral replication	Vero E6	0.7812 µM		CPE inhibition	0%
